Experimental data of several laboratories.
Numbered parts are unrelated; each lists some results of a single study.

Block 1
Target: Sal-like protein 4, full length isoform A (SALL4, Homo sapiens, UniProt Q9UJQ4, residues 1-1053)
UniProt Q9UJQ4, sequence (whole entry, looked up): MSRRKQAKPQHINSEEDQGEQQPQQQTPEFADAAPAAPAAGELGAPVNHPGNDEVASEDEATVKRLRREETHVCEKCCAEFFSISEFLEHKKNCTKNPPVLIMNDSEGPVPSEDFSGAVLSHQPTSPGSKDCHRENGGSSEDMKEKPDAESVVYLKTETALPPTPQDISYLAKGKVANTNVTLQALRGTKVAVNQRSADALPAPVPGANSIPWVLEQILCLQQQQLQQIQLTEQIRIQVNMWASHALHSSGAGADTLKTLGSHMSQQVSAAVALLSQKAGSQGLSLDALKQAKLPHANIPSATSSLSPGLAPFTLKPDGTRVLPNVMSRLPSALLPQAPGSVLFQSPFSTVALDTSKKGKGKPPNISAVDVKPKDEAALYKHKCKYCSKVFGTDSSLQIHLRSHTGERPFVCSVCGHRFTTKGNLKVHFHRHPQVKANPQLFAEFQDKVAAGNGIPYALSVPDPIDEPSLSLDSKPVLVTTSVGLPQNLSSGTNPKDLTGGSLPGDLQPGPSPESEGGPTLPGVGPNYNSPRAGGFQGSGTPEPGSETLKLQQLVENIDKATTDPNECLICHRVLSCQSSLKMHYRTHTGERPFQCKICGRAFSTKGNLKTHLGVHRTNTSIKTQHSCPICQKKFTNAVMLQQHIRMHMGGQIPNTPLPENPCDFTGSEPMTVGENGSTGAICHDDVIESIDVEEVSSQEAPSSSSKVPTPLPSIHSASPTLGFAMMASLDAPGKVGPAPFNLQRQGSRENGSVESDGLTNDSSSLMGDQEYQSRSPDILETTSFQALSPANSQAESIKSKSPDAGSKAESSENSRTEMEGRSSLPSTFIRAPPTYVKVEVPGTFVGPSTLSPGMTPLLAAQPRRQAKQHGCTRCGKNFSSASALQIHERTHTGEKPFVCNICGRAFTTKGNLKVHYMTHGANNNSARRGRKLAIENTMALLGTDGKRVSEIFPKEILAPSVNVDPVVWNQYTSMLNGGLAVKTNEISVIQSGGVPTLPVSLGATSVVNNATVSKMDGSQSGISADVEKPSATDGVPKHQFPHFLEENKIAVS
Technique: universal PBM
Form: double-stranded DNA, one strand shown
Sample: in vitro
Concentration: 600 nM
Setting: 8-mer, flanks averaged, mean of replicates
Direction: higher = stronger binding
Sequence	E-score
AAACCAGG	-0.126
CCTGGTAA	-0.117
CTCAGGAA	-0.156
CGCCTCAG	-0.189

Other studies, line by line
CBF1 full length, N-terminal tag: Centromere-binding protein 1, full length, N-terminal tag (CBF1, Saccharomyces cerevisiae, UniProt P17106, residues 1-351)
UniProt P17106, sequence (whole entry, looked up): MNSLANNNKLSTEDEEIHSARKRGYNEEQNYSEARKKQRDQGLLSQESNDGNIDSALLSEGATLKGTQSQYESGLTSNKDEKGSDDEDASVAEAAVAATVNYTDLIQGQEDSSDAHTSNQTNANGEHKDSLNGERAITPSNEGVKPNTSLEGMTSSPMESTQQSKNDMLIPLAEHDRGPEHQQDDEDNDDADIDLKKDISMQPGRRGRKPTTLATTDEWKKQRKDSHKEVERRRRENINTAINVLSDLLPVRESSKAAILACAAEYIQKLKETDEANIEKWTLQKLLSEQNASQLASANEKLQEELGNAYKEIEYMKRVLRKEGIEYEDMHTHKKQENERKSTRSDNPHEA
PABPC1L2 full length, GST fusion: PABPC1L2, full length, GST fusion (mouse, UniProt A0ABA7IW68)
Substance	target	test	system	conditions	how to read	endpoint	value
GAAAGCCCATAAAACGTCGTGATAATCCGCAACTAGGTCTTGATTCGCTTGACGCTGCTG	CBF1 full length, N-terminal tag	protein-binding microarray	double-stranded DNA, one strand shown, in vitro	0.8 µM, whole 60-bp probe, no competitor	higher = stronger binding	fluorescence intensity	538 a.u.
PhoQ, residues 284 288 289 292 302 303 TVTVVA	PhoP, residues 12 14 15 18 19 IQSYL (Escherichia coli, UniProt P23836)	Sort-seq, measured: YFP reporter	E. coli	PhoQ-PhoP variant library, with: 10 µM Mg2+	baseline: high Mg2+ state, higher = stronger signaling	fold induction	7.51
UAUAGCC	PABPC1L2 full length, GST fusion	RNAcompete	RNA, in vitro	20 nM, 7-mer, probes averaged, single round	baseline: mean of 7-mers, higher = stronger binding	7-mer Z-score	-0.0536
CTAACTCAGGTCCAGAACGTGACACATCTTTGCTTCGTCTTGATTCGCTTGACGCTGCTG	CBF1 full length, N-terminal tag	protein-binding microarray	double-stranded DNA, one strand shown, in vitro	0.8 µM, whole 60-bp probe, no competitor	higher = stronger binding	fluorescence intensity	1830 a.u.
ACCAUGG	PABPC1L2 full length, GST fusion	RNAcompete	RNA, in vitro	20 nM, 7-mer, probes averaged, single round	baseline: mean of 7-mers, higher = stronger binding	7-mer Z-score	-0.0047
CTAATATTTCAACATCATGTTTTGCTTAGTAGATTCGTCTTGATTCGCTTGACGCTGCTG	CBF1 full length, N-terminal tag	protein-binding microarray	double-stranded DNA, one strand shown, in vitro	0.8 µM, whole 60-bp probe, no competitor	higher = stronger binding	fluorescence intensity	551 a.u.

Some of these lines once more (other studies, line by line):
Substance	target	test	system	conditions	how to read	endpoint	value
ACCAUGG	PABPC1L2 full length, GST fusion	RNAcompete	RNA, in vitro	20 nM, 7-mer, probes averaged, single round	baseline: mean of 7-mers, higher = stronger binding	7-mer Z-score	-0.0047
